Results pooled from the literature.
Each line is one published result; not all experiments were run side by side. ± gives the spread as reported.
CTSS: Cathepsin S (CTSS, Homo sapiens, UniProt P25774)
Chain of UniProt O55242 (whole entry, looked up): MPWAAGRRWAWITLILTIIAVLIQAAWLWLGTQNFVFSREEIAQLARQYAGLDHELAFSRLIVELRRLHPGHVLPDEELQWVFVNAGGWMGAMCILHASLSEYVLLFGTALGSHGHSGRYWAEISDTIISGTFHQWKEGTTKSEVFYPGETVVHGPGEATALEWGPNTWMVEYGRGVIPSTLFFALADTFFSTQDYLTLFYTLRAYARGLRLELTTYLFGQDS
Chain of UniProt P08684 (whole entry, looked up): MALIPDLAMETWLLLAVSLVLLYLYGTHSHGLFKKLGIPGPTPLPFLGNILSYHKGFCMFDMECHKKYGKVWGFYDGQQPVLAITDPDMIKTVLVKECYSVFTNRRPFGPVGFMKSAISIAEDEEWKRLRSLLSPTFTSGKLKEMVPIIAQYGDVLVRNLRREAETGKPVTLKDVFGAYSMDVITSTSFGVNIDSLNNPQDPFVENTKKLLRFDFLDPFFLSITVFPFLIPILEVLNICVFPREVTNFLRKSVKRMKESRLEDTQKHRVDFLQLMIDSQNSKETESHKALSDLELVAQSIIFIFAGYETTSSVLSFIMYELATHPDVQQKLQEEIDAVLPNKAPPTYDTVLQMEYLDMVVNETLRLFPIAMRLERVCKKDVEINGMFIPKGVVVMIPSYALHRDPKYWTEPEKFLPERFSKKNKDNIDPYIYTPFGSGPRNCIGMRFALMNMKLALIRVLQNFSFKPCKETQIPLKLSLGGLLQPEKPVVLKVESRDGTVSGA
Chain of UniProt P05067 (whole entry, looked up): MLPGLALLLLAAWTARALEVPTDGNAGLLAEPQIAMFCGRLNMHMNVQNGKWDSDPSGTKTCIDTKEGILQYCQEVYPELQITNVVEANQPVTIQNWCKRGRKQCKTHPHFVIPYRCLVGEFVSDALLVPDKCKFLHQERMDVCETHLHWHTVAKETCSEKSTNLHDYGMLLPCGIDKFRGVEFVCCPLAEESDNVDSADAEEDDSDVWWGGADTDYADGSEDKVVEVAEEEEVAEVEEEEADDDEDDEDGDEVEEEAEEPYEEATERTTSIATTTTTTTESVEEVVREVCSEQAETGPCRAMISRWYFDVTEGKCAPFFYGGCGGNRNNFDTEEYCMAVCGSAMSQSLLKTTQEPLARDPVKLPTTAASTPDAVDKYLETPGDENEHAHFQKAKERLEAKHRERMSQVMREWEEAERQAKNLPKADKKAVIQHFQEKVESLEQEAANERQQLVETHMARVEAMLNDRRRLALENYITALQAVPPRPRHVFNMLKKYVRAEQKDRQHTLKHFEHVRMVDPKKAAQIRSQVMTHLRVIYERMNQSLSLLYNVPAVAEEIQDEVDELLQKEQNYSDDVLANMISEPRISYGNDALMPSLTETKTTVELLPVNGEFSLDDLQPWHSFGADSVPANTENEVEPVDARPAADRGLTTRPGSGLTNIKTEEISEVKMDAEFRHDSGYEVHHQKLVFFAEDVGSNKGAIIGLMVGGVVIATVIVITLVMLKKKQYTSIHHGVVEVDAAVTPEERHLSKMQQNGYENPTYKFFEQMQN
Chain of UniProt P27487 (whole entry, looked up): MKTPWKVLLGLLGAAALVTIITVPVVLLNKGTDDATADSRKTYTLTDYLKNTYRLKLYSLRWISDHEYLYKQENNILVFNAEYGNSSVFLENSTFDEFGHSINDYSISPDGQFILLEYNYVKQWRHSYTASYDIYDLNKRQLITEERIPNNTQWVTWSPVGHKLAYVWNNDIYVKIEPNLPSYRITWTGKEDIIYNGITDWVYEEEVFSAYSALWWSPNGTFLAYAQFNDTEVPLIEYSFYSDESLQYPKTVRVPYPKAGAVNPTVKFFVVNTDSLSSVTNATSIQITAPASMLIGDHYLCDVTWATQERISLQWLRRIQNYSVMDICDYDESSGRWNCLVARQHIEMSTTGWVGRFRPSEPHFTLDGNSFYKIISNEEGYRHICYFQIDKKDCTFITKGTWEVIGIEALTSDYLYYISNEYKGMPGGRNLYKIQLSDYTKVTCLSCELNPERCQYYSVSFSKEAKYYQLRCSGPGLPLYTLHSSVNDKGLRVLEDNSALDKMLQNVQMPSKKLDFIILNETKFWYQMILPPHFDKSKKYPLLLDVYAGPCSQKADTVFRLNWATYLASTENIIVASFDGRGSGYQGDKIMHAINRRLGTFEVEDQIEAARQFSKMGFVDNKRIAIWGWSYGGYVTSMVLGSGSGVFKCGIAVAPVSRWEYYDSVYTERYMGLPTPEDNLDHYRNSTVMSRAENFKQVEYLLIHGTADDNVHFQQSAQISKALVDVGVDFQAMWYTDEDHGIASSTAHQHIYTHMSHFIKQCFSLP
Chain of UniProt O75469 (whole entry, looked up): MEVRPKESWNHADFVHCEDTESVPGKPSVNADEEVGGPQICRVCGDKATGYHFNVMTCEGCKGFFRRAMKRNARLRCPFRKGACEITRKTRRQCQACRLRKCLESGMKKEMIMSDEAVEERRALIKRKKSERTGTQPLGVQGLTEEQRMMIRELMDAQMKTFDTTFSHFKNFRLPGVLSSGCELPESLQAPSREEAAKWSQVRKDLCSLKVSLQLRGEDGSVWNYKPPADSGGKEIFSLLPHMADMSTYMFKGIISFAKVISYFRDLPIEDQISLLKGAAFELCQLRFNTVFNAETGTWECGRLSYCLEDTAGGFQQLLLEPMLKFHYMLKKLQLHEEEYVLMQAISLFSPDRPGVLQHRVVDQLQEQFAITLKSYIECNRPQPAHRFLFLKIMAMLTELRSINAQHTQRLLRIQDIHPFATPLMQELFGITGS
Chain of UniProt Q08499 (whole entry, looked up): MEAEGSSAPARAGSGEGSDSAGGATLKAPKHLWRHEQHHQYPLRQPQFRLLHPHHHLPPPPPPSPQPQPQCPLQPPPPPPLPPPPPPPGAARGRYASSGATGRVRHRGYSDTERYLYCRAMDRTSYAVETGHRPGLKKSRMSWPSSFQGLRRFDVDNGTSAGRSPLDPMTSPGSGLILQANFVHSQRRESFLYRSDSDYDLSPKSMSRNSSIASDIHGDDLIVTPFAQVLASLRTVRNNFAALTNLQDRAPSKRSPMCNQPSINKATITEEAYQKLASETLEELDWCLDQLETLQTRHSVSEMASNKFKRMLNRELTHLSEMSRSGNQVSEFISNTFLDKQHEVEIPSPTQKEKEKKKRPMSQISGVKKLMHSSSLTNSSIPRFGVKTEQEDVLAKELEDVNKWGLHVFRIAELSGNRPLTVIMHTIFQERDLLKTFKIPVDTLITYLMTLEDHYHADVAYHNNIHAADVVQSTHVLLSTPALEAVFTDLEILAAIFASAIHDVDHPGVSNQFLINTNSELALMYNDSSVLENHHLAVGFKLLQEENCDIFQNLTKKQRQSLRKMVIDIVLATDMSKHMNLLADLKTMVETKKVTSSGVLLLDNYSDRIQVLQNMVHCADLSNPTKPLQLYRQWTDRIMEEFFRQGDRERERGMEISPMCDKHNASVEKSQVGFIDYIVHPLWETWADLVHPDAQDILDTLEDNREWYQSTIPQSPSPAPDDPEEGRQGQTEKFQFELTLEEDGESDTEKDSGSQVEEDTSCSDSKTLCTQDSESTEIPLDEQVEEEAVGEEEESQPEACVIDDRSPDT
Chain of UniProt P08683 (whole entry, looked up): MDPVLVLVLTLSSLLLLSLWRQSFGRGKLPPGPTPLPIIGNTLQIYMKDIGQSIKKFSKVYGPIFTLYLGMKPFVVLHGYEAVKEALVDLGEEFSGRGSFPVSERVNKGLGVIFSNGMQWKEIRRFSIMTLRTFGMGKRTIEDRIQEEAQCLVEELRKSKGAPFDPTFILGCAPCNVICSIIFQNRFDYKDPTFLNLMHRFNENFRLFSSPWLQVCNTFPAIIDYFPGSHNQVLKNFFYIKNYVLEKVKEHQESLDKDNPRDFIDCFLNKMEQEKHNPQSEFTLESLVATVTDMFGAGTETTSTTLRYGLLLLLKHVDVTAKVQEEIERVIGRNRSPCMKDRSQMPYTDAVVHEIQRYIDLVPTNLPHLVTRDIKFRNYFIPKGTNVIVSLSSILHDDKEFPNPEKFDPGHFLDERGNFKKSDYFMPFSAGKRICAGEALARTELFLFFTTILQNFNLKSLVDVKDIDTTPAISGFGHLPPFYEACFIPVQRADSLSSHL
Chain of UniProt P10632 (whole entry, looked up): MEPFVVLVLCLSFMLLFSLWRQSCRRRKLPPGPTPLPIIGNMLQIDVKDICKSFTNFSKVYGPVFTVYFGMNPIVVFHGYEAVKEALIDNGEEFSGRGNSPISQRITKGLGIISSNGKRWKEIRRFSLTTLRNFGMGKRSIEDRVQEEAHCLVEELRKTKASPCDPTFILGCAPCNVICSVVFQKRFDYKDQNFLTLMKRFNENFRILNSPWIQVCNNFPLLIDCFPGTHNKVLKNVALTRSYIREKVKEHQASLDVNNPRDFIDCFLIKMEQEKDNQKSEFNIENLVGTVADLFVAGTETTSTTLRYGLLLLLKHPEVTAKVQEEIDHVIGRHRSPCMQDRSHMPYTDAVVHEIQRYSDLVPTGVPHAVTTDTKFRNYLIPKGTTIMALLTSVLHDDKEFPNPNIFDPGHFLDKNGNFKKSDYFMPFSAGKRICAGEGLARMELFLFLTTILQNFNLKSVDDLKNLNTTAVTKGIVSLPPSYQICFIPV

SMILES	target	assay	test system	setting	how to read	measurement	result
CCC(=O)N(C)c1ccc(Cl)c(Cl)c1	NR1I2 (Homo sapiens, UniProt O75469)	reporter gene, agonist	–	32 µM	reference: vehicle	fold activation	1.6 fold
COc1cc(-c2nc3ccccc3s2)cc(CN2Cc3cccc(n3)CNCc3cccc(n3)C2)c1O	copper(2+) ion	Cu2+ binding, from titration constants	aqueous solution	50 µM, pH 7.4, Cu:ligand 1:1, equal totals	–	pCu	13.5
CSCC[C@H](NC(=O)[C@@H]1CCCN1C(=O)[C@@H](COC(C)(C)C)NC(=O)[C@@H](COC(C)(C)C)NC(=O)CNC(=O)CN1CCN(CC(=O)OC(C)(C)C)CCN(CC(=O)OC(C)(C)C)CCN(CC(=O)OC(C)(C)C)CC1)C(=O)NCC(=O)N[C@@H](CC(C)C)C(=O)N1CCC[C@H]1C(=O)O	CTSS	cleavage, substrate	–	24 h, pH 6.0, room temperature, un-metalated, start of time course	–	fraction metabolized	11%
NS(=O)(=O)Nc1ncnc(OCCOc2ncc(Br)cn2)c1-c1ccc(Br)cc1	Cyp2c11 (Rattus norvegicus, UniProt P08683)	substrate, measured: compound formation	rat, male	pH 7.4, mRNA abundance scaled	–	contribution to total CLint	20%
[123I]c1ccc2nc(-c3ccc(-n4ccnn4)nc3)cn2c1	Amyloid-beta precursor protein, amyloid-beta (APP, Homo sapiens, UniProt P05067)	SPECT	healthy controls, brain	intravenous	–	maximum SUV	~2.5
CC[C@H](C)[C@H](NC(=O)[C@H](Cc1ccccc1)NC(=O)[C@H](CCC(=O)O)NC(=O)[C@H](CCCCN)NC(=O)[C@H](C)NC(=O)[C@H](C)NC(=O)[C@H](CCC(N)=O)NC(=O)CNC(=O)[C@H](CCC(=O)O)NC(=O)[C@H](CC(C)C)NC(=O)[C@H](Cc1ccc(O)cc1)NC(=O)[C@H](CO)NC(=O)[C@H](CO)NC(=O)[C@@H](NC(=O)[C@H](CC(=O)O)NC(=O)[C@H](CO)NC(=O)[C@@H](NC(=O)[C@H](Cc1ccccc1)NC(=O)[C@@H](NC(=O)CNC(=O)[C@H](CCC(=O)O)NC(=O)[C@H](C)NC(=O)[C@@H](N)Cc1c[nH]cn1)[C@@H](C)O)[C@@H](C)O)C(C)C)C(=O)N[C@@H](C)C(=O)N[C@@H](Cc1c[nH]c2ccccc12)C(=O)N[C@@H](CC(C)C)C(=O)N[C@H](C(=O)N[C@@H](CCCNC(=N)N)C(=O)NCC(=O)N[C@@H](CCCNC(=N)N)C(=O)NCC(=O)O)C(C)C	DPP4 (Homo sapiens, UniProt P27487)	proteolytic stability, substrate, HPLC-UV	–	up to 24 h, pH 7.4, 37 °C, together with: recombinant enzyme 16 nmol/l	–	half-life	18 ± 6 min
COc1cc(-c2nc3ccccc3s2)cc(CN2Cc3cccc(n3)CN(CC(=O)O)Cc3cccc(n3)C2)c1O	copper(2+) ion	Cu2+ binding, from titration constants	aqueous solution	50 µM, pH 6.6, Cu:ligand 1:1, equal totals	–	pCu	12
[11CH3]Oc1ccc(Cc2cn[nH]c2)nc1-c1cccc([N+](=O)[O-])c1	PDE4D (Homo sapiens, UniProt Q08499)	PET	–	concentration not given, 60 to 120 min	–	decline of brain radioactivity	7%
[11CH3]N1CCN(CCCOc2ccc(=O)n(-c3ccc(Cl)c(Cl)c3)n2)CC1	Sigmar1 (Mus musculus, UniProt O55242)	radiotracer	mouse BALB/c male, whole brain	intravenous, 5 min	–	maximum uptake	7.66 %ID/cc
O=c1c(/C=N/NC(=S)N/N=C/c2ccccn2)coc2ccccc12	Fe2+ complex	potentiometric titration	–	25 °C	–	log stability constant	17.9
[64Cu+2].c1cnc(CNCc2ccc(CN3CCCN4CCNCCCN(CC4)CC3)cc2)nc1	CXCR4	–	NOD/SCID mouse, U87 and U87-stb-CXCR4 xenografts, heart	iv, 60 min, ex vivo	–	tissue uptake	1.62 ± 0.15 %ID/g
CC(=O)N[C@H](C(=O)N[C@H](C(=O)N[C@@H](CCCNC(=N)N)C(=O)N1Cc2ccccc2C[C@H]1C(=O)N[C@@H](Cc1ccccc1)C(N)=O)C1CCCCC1)C(C)C	CTSS	substrate	isolated enzyme in acetate buffer	1 mg/mL, pH 5.5, 0.30 U enzyme per µmol compound	–	half-life	> 240 min
COc1ccc2cc(NC(=O)c3cc(-c4ccncc4)nc4ccccc34)ccc2c1	Cytochrome P450 3A4 (CYP3A4, Homo sapiens, UniProt P08684)	substrate, measured: metabolites M1 plus M2	baculosomes	–	–	kcat/Km	28700 M⁻¹ s⁻¹
[64Cu+2].c1ccc(CNCc2ccc(CN3CCCN4CCNCCCN(CC4)CC3)cc2)nc1	CXCR4	–	NOD/SCID mouse, U87 and U87-stb-CXCR4 xenografts, kidney	iv, 60 min, ex vivo	–	tissue uptake	39.7 ± 4.03 %ID/g
O=c1c(/C=N/NC(=S)N/N=C/c2ccccc2O)coc2ccccc12	Fe2+ complex	potentiometric titration	–	25 °C	–	log stability constant	17.4
C=CC(=O)Nc1cc(Nc2nccc(-c3cn(C)c4ccccc34)n2)c(OCC(F)(F)F)nc1N(C)CCN(C)C	Cytochrome P450 2C8 (CYP2C8, Homo sapiens, UniProt P10632)	enzyme activity, inhibitor	human, liver microsomes	10 µM	–	activity vs control	95.3%
COc1cc(-c2nc3ccccc3s2)cc(CN2CCN(C)CCN(C)CC2)c1O	copper(2+) ion	Cu2+ binding, from titration constants	aqueous solution	50 µM, pH 7.4, Cu:ligand 1:1, equal totals	–	pCu	13.3
NC(=S)N/N=C/c1ccccc1O	Fe2+ complex	potentiometric titration	–	25 °C	–	log stability constant	17.2

For quick reference, copied from above:
SMILES	target	assay	test system	setting	how to read	measurement	result
[64Cu+2].c1ccc(CNCc2ccc(CN3CCCN4CCNCCCN(CC4)CC3)cc2)nc1	CXCR4	–	NOD/SCID mouse, U87 and U87-stb-CXCR4 xenografts, kidney	iv, 60 min, ex vivo	–	tissue uptake	39.7 ± 4.03 %ID/g
O=c1c(/C=N/NC(=S)N/N=C/c2ccccc2O)coc2ccccc12	Fe2+ complex	potentiometric titration	–	25 °C	–	log stability constant	17.4
C=CC(=O)Nc1cc(Nc2nccc(-c3cn(C)c4ccccc34)n2)c(OCC(F)(F)F)nc1N(C)CCN(C)C	Cytochrome P450 2C8 (CYP2C8, Homo sapiens, UniProt P10632)	enzyme activity, inhibitor	human, liver microsomes	10 µM	–	activity vs control	95.3%
